Measurements gathered from unrelated publications.
A part holds a random share of what one study measured. Substitutions count along the parent as printed.

Study 1
Target: ABI1, truncated, D143A, DHFR fusion (Arabidopsis thaliana)
Technique: DHFR PCA, deep sequencing
Medium: yeast
Notes: methotrexate growth selection, single substitutions
With: (+)-ABA 0.0091 µM
Relative to: wild-type fitted maximum
Reading: higher = stronger binding
Parent: PYL1, truncated, DHFR fusion (Arabidopsis thaliana); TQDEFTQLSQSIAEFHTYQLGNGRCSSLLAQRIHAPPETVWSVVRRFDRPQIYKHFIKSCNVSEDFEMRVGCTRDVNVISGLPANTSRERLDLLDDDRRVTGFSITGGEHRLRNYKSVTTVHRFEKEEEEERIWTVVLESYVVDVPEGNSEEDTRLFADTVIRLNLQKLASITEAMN
Substitution | relative binding score
H55L | 16.6%
I52K | 1%
V136N | -14.1%
P37Q | 10.3%
F124R | 1.54%
N85V | 70.1%
T1L | 30.3%
D159C | -1.65%
L166I | 6.37%
Q51P | 0.966%
G71K | -4.6%
D75Y | 25.5%
Q167N | 5.09%

Study 2
Target: Histone acetyltransferase KAT6A, both winged helices, GST fusion (KAT6A, Homo sapiens, UniProt Q92794, residues 1-181)
Technique: protein binding microarray
Form: double-stranded DNA, one strand shown
Medium: in vitro
Tested at: not given
Notes: 8-mer, flanks averaged, mean of 2 arrays, mostly near background
Relative to: not given
Reading: higher = stronger binding
Target sequence (chain): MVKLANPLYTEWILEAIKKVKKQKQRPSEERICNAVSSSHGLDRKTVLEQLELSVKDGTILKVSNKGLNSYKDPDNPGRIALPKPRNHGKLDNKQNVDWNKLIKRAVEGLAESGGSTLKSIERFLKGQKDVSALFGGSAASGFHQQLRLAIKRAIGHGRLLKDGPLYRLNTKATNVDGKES
Strand | E-score
AAGTCAGG | -0.126
AATCCTGA | -0.177
AATATTCC | 0.0436
AAAAAGGG | -0.138
GCAAAAAA | 0.00436
CCTTTTCG | -0.081
GTTATGAA | -0.00823
GTCGTGAA | 0.0722
AATCCATA | -0.0788
GTACACAC | 0.125
ACACTGGG | -0.0823
CCTACCTC | -0.211
CCAGCGTC | -0.0566
AGTGAGAG | -0.178
AAGAGCCG | 0.163
CACAACGG | 0.131
ACGCTAGT | 0.0843
CTGCCGAC | 0.117
CAGTGCGA | -0.00541
ACTCGGGA | 0.0654
TCCGTCGA | 0.211
GCGGTATA | 0.209
AGCAGCTG | -0.197
GTCAAGCA | -0.0844

Study 3
Target: RING finger protein unkempt homolog, zinc fingers 1-6, GST-SBP tag (UNK, Homo sapiens, UniProt Q9C0B0, residues 30-357)
Technique: RNA Bind-n-Seq
Form: RNA
Medium: in vitro
Tested at: not given
Notes: RNA with constant flanks, human-mouse chimeric sites, ends assumed
Relative to: input RNA pool
Reading: higher = stronger binding
Constant ends, left off below: GGGAGUUCUACAGUCCGACGAUC … CAACAGAGGAUUGAGCAUCA
Residues (chain): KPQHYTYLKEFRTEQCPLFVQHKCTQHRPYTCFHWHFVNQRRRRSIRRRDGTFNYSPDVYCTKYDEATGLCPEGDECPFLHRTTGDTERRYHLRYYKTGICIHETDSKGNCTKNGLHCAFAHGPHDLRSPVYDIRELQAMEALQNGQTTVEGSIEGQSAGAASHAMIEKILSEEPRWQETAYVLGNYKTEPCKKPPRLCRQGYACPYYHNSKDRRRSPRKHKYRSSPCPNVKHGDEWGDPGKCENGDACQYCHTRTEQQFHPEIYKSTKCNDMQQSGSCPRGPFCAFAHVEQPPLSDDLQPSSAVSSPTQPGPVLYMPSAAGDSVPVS
Strand | bound/input enrichment [ratio]
AAAGAACUUGCUGAUGAUGAAGAUGAGGAAGACAAUGAUGAUGUUGAACCUAUUACUGAAUUUCGAUUUGUGCCCAGUGAUAAGUCAGCAUUGGAGGCGAUGUUCACAGCAAUGUGUGAG | 0.299
UCUGGUCACACUCGUGUGUAUGGUGUUUGCUUUGUGGAUACUUCACUGGGCAAGUUUUUCAUCGGCCAGUUUUCGGAUGACCGCCACUGUUCCAGAUUUAGGACGCUAGUGGCUCACUAU | 0.229
AUAGAUGAAAUUGAUGUGGACCAGGAAGGAAUUGCUGAAAUGAUCCUGGAUGAAAAUGCUAUAGCUCAGGUCCCACGCCCUGGAACGUCUUUGAAGCUCCCUGGCACUAACCAAACAGGA | 0.465
UAAGUCCAUUUGUAAGCCUUCGCUCAUAAAGUUUUAAAUUCUGGACCAAUAGUGUUUGUUUCCUGAUUAUUGUAUCCAAUACUUUGCCUAGUAUGUAACUCACUCUUACUGAUAAUAAAA | 1.52
GCUCCUCUUCCGCACUCAGCCUGGGGACUUUUGGCAAGGACCAGAAUCCAGCUUUCUUUUAAAACUCUCAGUGUAACUGUAUCCCGUGACAUUUCAUUUUUUUUAAAUAGUGUAUUUUUU | 2.71
GCCACCAGAUCCCAGAAACAUGACCCUUGCUGCCUACAAGGAGAAGAUGAAGGAGCUCCCGCUGGUGUCCUUGUUCUGCUCUUGCUUCCUGGCCGAUCCCCUGAAUAAGUCGUCCUACAA | 0.248
GUAGCUGGGACUACAGAAAUGCUGGUAGUGCUCCGGCCUUGCUGAUGACUUCUGAUGACCUAGCAAAUGUUGGCAUUGUUGACUGCUGAGAAGAUACUUCUGAGGACCCACGUCUAAGGU | 0.0716
AUCAAAUAUUUUGGGGACAUCAUUAGUGUGGGACAGAGACUGUUGCAAGGAGCUCGGAUCUUAGGGAUUCCAGUUAUCAUAACGGAACAAUACCCUAAAGGACUUGGCAGCACCGUUCAA | 0.178

Study 4
Target: RNA binding protein fox-1 homolog 2, RRM domain, GST-SBP tag (RBFOX2, Homo sapiens, UniProt O43251-10, residues 100-194)
Technique: RNA Bind-n-Seq
Form: RNA
Medium: in vitro
Tested at: 365 nM
Notes: natural RNA segment, single round, ends assumed
Relative to: no-protein control
Reading: higher = stronger binding
Constant ends, left off below: GGGAGUUCUACAGUCCGACGAUC … UGGAAUUCUCGGGUGCCAA
Target sequence (chain): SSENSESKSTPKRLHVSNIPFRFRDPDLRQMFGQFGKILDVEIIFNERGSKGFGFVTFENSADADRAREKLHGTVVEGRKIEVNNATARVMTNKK
Strand | RBNS enrichment (R)
GCACUUGGUAUUCCAGACCCCUGACAUGAGGAAUGCAGGUUCACACUGUAAAGAGUUUGUGAAAGGUUUCAGUCUAACUGGGGUUCCUUAGCUGGAAGCCAGGGCUGGAA | 0.5
UCCCUUAGCCCCAGUCCCACAGAUCAGGUGGAGACUGGAGUGACAGAGGGCGACUGUACCAAGGCCACACCAGCUGACCAGCACACCUCUAUCCUUUUGAGCUCUUCUGU | 0.247
UCCCCUGAGCUGAUCCGCUUCACAGCUUCCUCCUCGUCUGGGAUGGUGCCCAAAUUGCCAGCUGGCAAAAUGAAUAACCGUGAUCUCAAACCCCAGCCUGAUAUAGUCUU | 0.375
AAGAGAGAACCUAACUGUAUCUUGAGGUGGUAGUAAAACACAGAGGGCCAGUAACGGGUCGUAAUGACUUAUUGUGGAUAACAAAGAUAUCUUUUCUUUAGAGAACUGAA | 0.349
CUAGUCCUUGGAGCUAAACUGGGAGUGGGUGCCAGGUGGAGGGUAGCAGGUCUGACCAGCCCUACACCCUGCCACAGAUCACAGCUUGCCGGGCAAAUGACCCUGCGAAG | 0.464
UCUACUGACCUGAAUGUGUUGGAUCUUCACGUGUCGUUUUGUUUUGGCUUUAUUGAUGCACGGAUGCUUUUGAACAGUAGAGCGAAAUGCUAGACAUGGAGAACUUGCUC | 15.5
CACCUUGAGGGGCUGACCUGUGUUAGGCAGUGGCCAUGGCCCAGUGUGAUGUUGUGUUGCUCACACACGCCACCCAGCCACCCAUGCGCUGCCUGACCACAGCAACCCCC | 0.309
CCACCUCAGGGAAAAGGUAGAGGGGGCAGGUUAGAACUUGUGGUACAGUGAUAUUGGUCCAGUUCCUCCUGACUCUUCACUCUACCACCCAAAAGUCAAUGUAGACCUAC | 0.36

Study 5
Target: CCNE2, cyclin fold, Cln2 fusion (human)
Technique: yeast growth competition, sequencing
Medium: yeast
Notes: strong parent motif
Relative to: not given
Reading: higher = stronger binding
Parent: BRCA2 docking peptide (human); PSIKRNLLNEFDR
Substitution | normalised enrichment score
PSIARNLLNEFDR [K4A] | 0.398
PWIKRNLLNEFDR [S2W] | 0.343
PEIKRNLLNEFDR [S2E] | 0.219
PSHKRNLLNEFDR [I3H] | 2.08
PYIKRNLLNEFDR [S2Y] | 0.934
PSIKRNLLNEFDW [R13W] | 2.07
PSIKRNLLNWFDR [E10W] | 1.44
PSIKKNLLNELDR [R5K F11L] | -0.192
PSIKRNLLNEFER [D12E] | 2.48
PSIKRNLLNEFDG [R13G] | 1.44
PSIKRNLLFEFDR [N9F] | 1.53
PMIKRNLLNEFDR [S2M] | 1.1
PSNKRNLLNEFDR [I3N] | 0.271
PSIKRNELNEFDR [L7E] | -0.28
PRIKRNLLNEFDR [S2R] | 1.39
PSIKRNLLVEFDR [N9V] | 0.737
PSIKRNLLNEFDK [R13K] | 1.22
PSIKRMLLNEFDR [N6M] | -0.0958
PSIDRNLLNEFDR [K4D] | 0.198
PSIKRNLLNEFDS [R13S] | 1.42
PSDKRNLLNEFDR [I3D] | -0.49
CSIKRNLLNEFDR [P1C] | 1.67
PSIVRNLLNEFDR [K4V] | 2.33
PAIKRNLLNEFDR [S2A] | 1.21
PGIKRNLLNEFDR [S2G] | 1.55

Excerpt of the above (study 5):
Substitution | normalised enrichment score
PSIKRNLLNEFER [D12E] | 2.48
PMIKRNLLNEFDR [S2M] | 1.1
PSIKRNLLNEFDW [R13W] | 2.07
PRIKRNLLNEFDR [S2R] | 1.39
PSIKRNLLNEFDG [R13G] | 1.44
PSIKRNLLFEFDR [N9F] | 1.53
CSIKRNLLNEFDR [P1C] | 1.67
